Results gathered from unrelated publications.
Lines come from different studies, so protocols differ. Numbers after ± are the reported error.
Chain of UniProt P37136 (whole entry, looked up): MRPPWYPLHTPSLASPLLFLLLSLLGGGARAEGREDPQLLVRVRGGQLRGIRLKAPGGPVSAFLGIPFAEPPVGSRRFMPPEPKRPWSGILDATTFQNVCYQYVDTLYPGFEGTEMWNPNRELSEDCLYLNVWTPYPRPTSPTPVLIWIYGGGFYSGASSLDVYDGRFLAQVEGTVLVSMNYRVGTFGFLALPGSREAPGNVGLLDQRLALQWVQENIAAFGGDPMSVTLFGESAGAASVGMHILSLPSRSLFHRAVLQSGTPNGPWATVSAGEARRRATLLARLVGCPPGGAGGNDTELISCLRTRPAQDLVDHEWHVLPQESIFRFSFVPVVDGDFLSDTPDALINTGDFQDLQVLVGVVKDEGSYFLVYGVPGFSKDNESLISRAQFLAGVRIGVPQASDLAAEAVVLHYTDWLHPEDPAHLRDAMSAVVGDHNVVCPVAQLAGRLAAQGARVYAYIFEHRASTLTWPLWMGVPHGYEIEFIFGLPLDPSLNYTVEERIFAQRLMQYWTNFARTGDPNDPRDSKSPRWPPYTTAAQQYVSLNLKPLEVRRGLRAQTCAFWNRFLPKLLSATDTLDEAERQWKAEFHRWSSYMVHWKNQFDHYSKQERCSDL

Substance	target or system	test	test system	conditions	endpoint	result
phoxim-oxon	Ache (Rattus norvegicus, UniProt P37136)	enzyme activity, inhibitor, Ellman	rat, postnatal day 12, lung homogenate	15 min, 37 °C	IC50	21 nM
chicoric acid	IPEC-J2 monolayer	–	–	500 µM, monolayer cultured 14 d	Papp apical to basolateral	0.383 ± 0.038 ×10⁻⁶ cm/s
deucravacitinib	–	multiple ascending dose	healthy human	oral, 12 mg twice daily	subjects with nervous system disorders	22.2%
maraviroc	–	–	black CYP3A5 extensive metabolizers, plasma	300 mg twice daily	Tmax	2 h
semaglutide	–	measured: possibly related to drug	human, safety analysis set	concentration not given, 32 weeks, run-in	participants with adverse events	39.6%

Repeated from above:
Substance	target or system	test	test system	conditions	endpoint	result
semaglutide	–	measured: possibly related to drug	human, safety analysis set	concentration not given, 32 weeks, run-in	participants with adverse events	39.6%
